Experimental data pooled from the literature.
Protocols differ between the studies behind these lines.
EGFR del746-750: Epidermal growth factor receptor (EGFR, Homo sapiens, UniProt P00533, del746-750)
EGFR L858R: Epidermal growth factor receptor (EGFR, Homo sapiens, UniProt P00533, L858R)
EGFR L861Q: Epidermal growth factor receptor (EGFR, Homo sapiens, UniProt P00533, L861Q)
UniProt P49116, sequence (whole entry, looked up): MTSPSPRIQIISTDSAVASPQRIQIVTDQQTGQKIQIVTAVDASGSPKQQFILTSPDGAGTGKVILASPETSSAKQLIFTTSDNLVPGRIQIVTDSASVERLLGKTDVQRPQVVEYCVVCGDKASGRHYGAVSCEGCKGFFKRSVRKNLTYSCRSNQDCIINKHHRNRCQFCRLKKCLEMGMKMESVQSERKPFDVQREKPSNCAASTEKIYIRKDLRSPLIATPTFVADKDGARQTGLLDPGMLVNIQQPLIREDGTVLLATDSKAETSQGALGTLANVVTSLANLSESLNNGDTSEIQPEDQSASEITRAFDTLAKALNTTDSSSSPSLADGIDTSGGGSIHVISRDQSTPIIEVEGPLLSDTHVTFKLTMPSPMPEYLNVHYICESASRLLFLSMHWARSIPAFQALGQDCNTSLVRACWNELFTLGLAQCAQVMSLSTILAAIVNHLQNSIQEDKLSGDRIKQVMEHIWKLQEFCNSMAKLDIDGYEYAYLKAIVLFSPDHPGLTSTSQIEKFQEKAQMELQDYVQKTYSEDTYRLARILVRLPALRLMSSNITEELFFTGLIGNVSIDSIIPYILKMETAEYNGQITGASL

With `C=CC(=O)N1CCC(COCC(=O)N2CCN(c3nc(-c4cnc(N)nc4C(F)F)nc(N4CCOC[C@@H]4C)n3)CC2)CC1` the remaining binding was 100% (EGFR del746-750; KINOMEscan; 1 µM; relative to: DMSO control).
`COc1cc(N2CCN(C)CC2)ccc1Nc1nc(N)n(C(=O)NCc2c(Cl)cccc2Cl)n1` has a remaining activity of 22% (EGFR (Homo sapiens, UniProt P00533, G719S); enzyme activity; 10 µM; relative to: control).
`C=CC(=O)N1CCC(C(=O)NCC(=O)N2CCN(c3nc(-c4cnc(N)nc4C(F)F)nc(N4CCOCC4)n3)CC2)CC1` gave a remaining binding of 82% (EGFR (Homo sapiens, UniProt P00533, del747-752/P753S); KINOMEscan; 1 µM).
For `COc1ccc(-c2nn(-c3ccc(S(C)(=O)=O)cc3)cc2C=N/N=c2\[nH]c(-c3ccc([N+](=O)[O-])cc3)cs2)cc1`, the inhibition was 35.3% (EGFR L858R; kinase activity, inhibitor; 0.01 µM).
The inhibition of `[2H]c1cc(C)c(NC(=O)c2cnc(Nc3cc(N4CCCCC4)nc(C)n3)s2)c(Cl)c1` is reported as < 30% (EGFR L861Q; 0.01 µM).
Under “duration of degradation”, `COc1cc2ncnc(Nc3ccc(F)c(Cl)c3)c2cc1OCCCN1CCN(C(=O)CCOCCOCCOCCOCCOCCNc2ccc3c(c2)C(=O)N(C2CCC(=O)NC2=O)C3=O)CC1` (stereo not shown) is recorded as ≤ 48 h (EGFR del746-750; protein degradation, degrader, western blot; HCC827; 100 nM).
`C[C@@H](c1ccc(-n2cnc3c(N)ncnc32)cc1)N1CCc2nn(C)c(Cc3ccccc3)c2C1=O` gave a remaining binding of 81% (EGFR L858R; KINOMEscan; 0.1 µM; relative to: DMSO control).
With `O=C(NC1CCC1)c1ccc2nc(-c3cccc(NS(=O)(=O)NCCN4CCCCC4)c3)cn2c1` the remaining activity was 100% (EGFR L861Q; enzyme activity; 10 µM).
`COc1cc(N2CCN(C)CC2)ccc1Nc1nc(N)n(C(=S)NCc2c(Cl)cccc2Cl)n1` gave a remaining activity of 0.5% (EGFR (Homo sapiens, UniProt P00533, G719C); enzyme activity; 10 µM; relative to: control).
For `CC(C)Cc1ccc(-c2nn(-c3ccc(S(C)(=O)=O)cc3)cc2/C=N/N=c2\[nH]c(-c3ccc([N+](=O)[O-])cc3)cs2)cc1`, the inhibition was 88% (EGFR L858R; kinase activity, inhibitor; 10 µM).
For `CCc1cc2c(N3CCN(c4nncs4)CC3)ncnc2s1`, the viability was 118% (OCI-Ly1; 1 µM, 120 h).
With `COc1ccc(-c2nn(-c3ccc(S(C)(=O)=O)cc3)cc2/C=N/N=c2\[nH]c(-c3ccc(Br)cc3)cs2)cc1` the inhibition was 41% (EGFR L858R; kinase activity, inhibitor; 0.01 µM).
`CCOc1cc(N2CCN(C)CC2)ccc1Nc1nc(N)n(C(=O)NCc2ccccc2S(=O)(=O)C(C)C)n1` gave a remaining activity of 34% (EGFR (Homo sapiens, UniProt P00533, L858R/T790M); enzyme activity; 10 µM; relative to: control).
The Kd of `CN1CC2c3ccccc3Oc3ccc(Cl)cc3C2C1` (stereo not shown) is reported as 2.2 nM (Nuclear receptor subfamily 2 group C member 2, ligand-binding domain (Homo sapiens, UniProt P49116); SPR imaging).
With `COc1cc(N2CCN(C)CC2)ccc1Nc1nc(N)n(C(=O)NCc2ccccc2S(=O)(=O)C(C)C)n1` the remaining activity was 14% (EGFR del746-750; enzyme activity; 10 µM; relative to: control).
The viability of `Nc1ccn([C@@H]2O[C@H](CO)[C@@H](O)C2(F)F)c(=O)n1` is reported as 1.68% (OCI-Ly1; 1 µM, 120 h).

Some of these lines once more:
For `CC(C)Cc1ccc(-c2nn(-c3ccc(S(C)(=O)=O)cc3)cc2/C=N/N=c2\[nH]c(-c3ccc([N+](=O)[O-])cc3)cs2)cc1`, the inhibition was 88% (EGFR L858R; kinase activity, inhibitor; 10 µM).
